Measured values from different studies.
Protocols differ between the studies behind these lines. Values joined by “and” are separate records of one study, mostly repeats; a detail may differ.
Target: Tyrosine-protein kinase Yes (YES1, Homo sapiens, UniProt P07947)

SMILES | assay | test system | setting | how to read | measurement | result
NC(=O)[C@@H](O)C[C@H]1CCc2sc3ncnc(O[C@H]4CC[C@H](N5CCOCC5)CC4)c3c21 | enzyme activity, inhibitor | – | 10 µM | – | inhibition | 57%
CCN1CCN(Cc2ccc(C(=O)Nc3ccc(C)c(NCc4cnc5[nH]ccc5c4OC)c3)cc2C(F)(F)F)CC1 | binding, competition with immobilised ligand | – | 1 µM | – | remaining binding | 2.7%
CNC(=O)C1CCN(c2cc(C)c(F)cc2NC(=O)c2ccc(-c3cc(O)ccc3C)c(C)c2)CC1 | binding, competition with immobilised ligand | – | 1 µM | – | remaining binding | 1.1%
O=C(Cc1ccc(OCc2ccccc2)cc1)NC1(C(=O)O)CCN(C(=O)c2ccc(-c3cccc(Cl)c3)cc2)CC1 | enzyme activity, inhibitor | – | 10 µM | – | activity vs control | 111%
C=CC(=O)Nc1cccc(-c2cnc3[nH]cc(C(=O)NC(C)(C)C)c3n2)c1 | kinase activity | – | 0.1 µM | – | inhibition | 14% and 15%
Cc1cccc(-c2ccc3nc(NC(=O)C4CCCO4)nn3c2)c1 (stereo not drawn) | enzyme activity, Dundee kinase panel | – | 10 µM | – | remaining activity | 89%
Nc1nc(Nc2ccccc2)sc1C(=O)c1ccccc1 | enzyme activity, inhibitor | – | 10 µM | – | remaining activity | 25%
COc1cc(Nc2nc(C)cc(-c3cnn4nc(OC)ccc34)n2)cc(C(F)(F)F)c1 | binding, competition with immobilised ligand | – | 1 µM | – | remaining binding | 80%
O=c1c(-c2ccc(Cl)c(CN3CCOCC3)c2)coc2cc(O)ccc12 | enzyme activity, inhibitor | – | 1 µM | – | remaining activity | 94%
Cc1ccc(C(=O)Nc2ccc(CN3CCN(C)CC3)c(C(F)(F)F)c2)cc1C#Cc1cnc2cccnn12 | target engagement, NanoBRET | human cells | – | – | upper asymptote | 8080
CN1CC[C@@H](COc2cnc(C#N)cc2-c2ccn3nc(NC(=O)C4CC4)cc3c2)C1 | enzyme activity, inhibitor | – | 1 µM | – | inhibition | 81%
C=CC(=O)N1Cc2nc(-c3cc(-c4cc(Cl)cnc4Cl)c(F)cc3F)n(-c3ccncn3)c2C1 | cell-free assay, inhibitor | – | 1 µM | – | inhibition | 8.5%
CCN1CCN(Cc2ccc(NC(=O)c3ccc(C)c(NC(=O)c4cncc(-c5cnn(C)c5)c4)c3)cc2C(F)(F)F)CC1 | binding, competition with immobilised ligand | – | 1 µM | – | remaining binding | 1.6%
Cc1cccc(-c2ccc3nc(NC(=O)C4CCCCC4)nn3c2)c1 | enzyme activity, Dundee kinase panel | – | 10 µM | – | remaining activity | 92%
C=CC(=O)N1CCCC(n2c(=O)c3ncccc3n(Cc3ccc(Oc4ccccc4)cc3)c2=O)C1 (stereo not drawn) | cell-free assay, competition with immobilised ligand | – | 1 µM | – | remaining binding | 86%
Cc1cccc(O[C@H]2CCC[C@@H](C(C)CNCc3ccncc3)C2)c1 (relative stereo) | enzyme activity, inhibitor | – | 1 µM | – | inhibition | -2%
Cc1cnc2nc1Nc1cccc(c1)COC/C=C/COCc1cc(ccc1OCCN1CCOCC1)N2 | binding | – | 0.1 µM | – | remaining binding | 62%
Nc1ncc2c(n1)-c1c([nH]c3ccc(C4=CCOCC4)cc13)CCC2 | binding, competition with immobilised ligand | – | 1 µM | – | remaining binding | 100%
O=C=[N][Ru-4]123([n]4c5ccc(O)cc5c5c6c(c7cc(F)c[n+]1c7c54)C(=O)NC6=O)[S+]1CC[S+]2CC[S+]3CC1 (stereo not drawn) | enzyme activity | – | 100 nM, human enzyme, together with: 10 µM ATP | reference: untreated | remaining activity | 81%
COc1c(OCCCN2CCOCC2)ccc2c1N=C(NC(=O)c1cnc(N)nc1)N1CCN=C21 | kinase activity, inhibitor | – | 1 µM | reference: untreated control | remaining activity | 82%
Nc1ncc(-c2cc(-c3cnn(CC(F)(F)F)c3)ncc2F)nc1C(=O)NC1CNCC(F)C1 (stereo not drawn) | enzyme activity | – | 1 µM | reference: DMSO control | remaining activity | 81.2%

Some of these lines once more:
SMILES | assay | test system | setting | how to read | measurement | result
Nc1nc(Nc2ccccc2)sc1C(=O)c1ccccc1 | enzyme activity, inhibitor | – | 10 µM | – | remaining activity | 25%
COc1cc(Nc2nc(C)cc(-c3cnn4nc(OC)ccc34)n2)cc(C(F)(F)F)c1 | binding, competition with immobilised ligand | – | 1 µM | – | remaining binding | 80%
